{"data": "Experimental data gathered from unrelated publications", "Complement C3": "Complement C3 (Homo sapiens, UniProt P01024)", "Histone chaperone ASF1A": "Histone chaperone ASF1A (Homo sapiens, UniProt Q9Y294)", "note": "Lines come from different studies, so protocols differ. ± marks the error that the study gave."}
{"Compound": "CCCCC[N+](CCCCC)(CCCCC)CCCCC", "target": "KCNK18 (Homo sapiens, UniProt Q7Z418)", "assay": "ion current, blocker, inside-out patch clamp", "system": "Xenopus oocytes", "conditions": "concentration not given, per 100 mV voltage change", "measurement": "increase of block", "value": "10%"}
{"Compound": "NC(CNC(CNC(CC(=O)O)C(=O)O)C(=O)O)C(=O)O (stereo not drawn)", "target": "IMP-7 metallo-beta-lactamase", "conditions": "500 µM, 60 min, Zn-depleted buffer", "measurement": "remaining activity", "value": "35.6 ± 2%"}
{"Compound": "Nc1ncnc2c1ncn2[C@H]1C[C@H](O)[C@@H](COP(=O)(O)OP(=O)(O)[C@H](F)P(=O)(O)O)O1", "target": "DNA polymerase eta (POLH, Homo sapiens, UniProt Q9Y253)", "assay": "dNTP incorporation, single-turnover kinetics", "conditions": "W sequence, A·T pair", "how to read": "relative to: non-enzymatic LFER line", "measurement": "delta effective pKa4", "value": "-0.7 pK units"}
{"Compound": "Nc1nc2c(ncn2[C@@H]2O[C@@H]3COP(=O)(O)O[C@H]4[C@@H](O)[C@H](n5cnc6c(=O)[nH]c(N)nc65)O[C@@H]4COP(=O)(O)O[C@H]3[C@H]2O)c(=O)[nH]1", "target": "SLC19A1 (Homo sapiens, UniProt P41440)", "assay": "inhibitor", "system": "THP-1", "conditions": "100 µM, 1 h", "measurement": "2'3'-cGAMP uptake", "value": "inhibited"}
{"Compound": "CC[C@H](C)[C@H](NC(C)=O)C(=O)N[C@H]1CSSC[C@@H](C(=O)N[C@H](C(N)=O)[C@@H](C)O)NC(=O)[C@H](CCCNC(=N)N)NC(=O)[C@H](Cc2c[nH]cn2)NC(=O)[C@H](C)NC(=O)CNC(=O)[C@H](Cc2c[nH]c3ccccc23)NC(=O)[C@H](CC(=O)O)NC(=O)[C@H](CCC(N)=O)NC(=O)[C@H](Cc2ccc(O)cc2)NC(=O)[C@H](C(C)C)NC1=O", "target": "Complement C3", "assay": "isothermal titration calorimetry", "how to read": "relative to: 1-methyltryptophan reference", "measurement": "-TΔΔS", "value": "-1.6 kcal/mol"}
{"Compound": "CC[C@H](C)[C@H](NC(=O)[C@@H]1CSSC[C@H](NC(=O)[C@@H](NC(C)=O)[C@@H](C)CC)C(=O)N[C@@H](C(C)C)C(=O)N[C@@H](Cc2cn(C)c3ccccc23)C(=O)N[C@@H](CCC(N)=O)C(=O)N[C@@H](CC(=O)O)C(=O)N[C@@H](Cc2c[nH]c3ccccc23)C(=O)N(C)CC(=O)N[C@@H](C)C(=O)N[C@@H](Cc2c[nH]cn2)C(=O)N[C@@H](CCCNC(=N)N)C(=O)N1)C(N)=O", "target": "Complement C3", "assay": "ITC", "system": "PBS", "conditions": "concentration not given, pH 7.4, 25 °C", "measurement": "ΔH of binding", "value": "-14.1 kcal/mol"}
{"Compound": "CC(C)C[C@H](NC(=O)[C@H](CC(N)=O)NC(=O)[C@H](CCCNC(=N)N)NC(=O)[C@H](CC(=O)O)NC(=O)[C@@H](NC(=O)[C@@H]1CCCN1C(=O)[C@H](CO)NC(=O)[C@@H]1CCCN1)C(C)C)C(=O)N[C@@H](CCCCN)C(=O)N1CCC[C@H]1C(=O)N[C@@H](CC(=O)O)C(=O)N[C@@H](CCCNC(=N)N)C(=O)O", "target": "Growth factor receptor-bound protein 2, C-terminal SH3 domain (GRB2, Homo sapiens, UniProt P62993)", "assay": "SH3 domain binding, isothermal titration calorimetry", "conditions": "concentration not given, C-terminal SH3 domain", "measurement": "binding", "value": "no binding"}
{"Compound": "[3H]C([3H])([3H])c1cnccc1CN1C[C@@H](c2cc(F)c(F)c(F)c2)CC1=O", "target": "SV2A (Homo sapiens, UniProt Q7L0J3)", "assay": "radioligand binding", "system": "human control, frontal cortex", "how to read": "relative to: P1 over P2 fraction", "measurement": "specific binding ratio", "value": "~1.4 fold"}
{"Compound": "CC[C@H](C)[C@H](NC(=O)[C@H](CCCNC(=N)N)NC(=O)NC[C@H](CCC(N)=O)NC(=O)NC[C@H](CC(C)C)NC(=O)NC[C@H](CCCNC(=N)N)NC(=O)NC[C@H](C)NC(=O)[C@H](CCCCN)NC(=O)[C@H](CCC(=O)O)NC(C)=O)C(=O)N[C@@H](C)C(N)=O", "target": "Histone chaperone ASF1A", "assay": "isothermal titration calorimetry", "conditions": "concentration not given, pH 7.5, 20 °C", "measurement": "binding stoichiometry", "value": "1.1 ± 0.2"}
{"Compound": "O=C(N[C@@H](Cc1coc2ccccc12)B(O)O)[C@@H]1C[C@H]2CC[C@@H]1O2", "target": "Proteasome component C5/PSMB8 (Homo sapiens, UniProt P20618+P28062)", "system": "mouse, U266B1 xenograft, tumour", "conditions": "oral, single dose, 24 h", "measurement": "protein level", "value": "no effect"}
{"Compound": "O=C1Nc2ccc(F)cc2/C1=N/N=C/c1ccc(OCc2cccc(F)c2)cc1", "target": "MAOA (Homo sapiens, UniProt P21397)", "assay": "enzyme activity, inhibitor", "conditions": "10 µM", "measurement": "remaining activity", "value": "53.1%"}
{"Compound": "CC[C@H](C)[C@H](NC(=O)[C@H](CCCNC(=N)N)NC(=O)NC[C@H](CCC(N)=O)NC(=O)NC[C@H](CC(C)C)NC(=O)NC[C@H](CCCNC(=N)N)NC(=O)NC[C@H](Cc1ccc2ccccc2c1)NC(=O)[C@H](CCCNC(=N)N)NC(=O)[C@H](CCC(=O)O)NC(C)=O)C(=O)N[C@@H](C)C(N)=O", "target": "Histone chaperone ASF1A", "assay": "isothermal titration calorimetry", "conditions": "concentration not given, pH 7.5, 20 °C", "measurement": "binding stoichiometry", "value": "1.1 ± 0.1"}
{"Compound": "OC[C@H]1O[C@@H](Oc2ccc(-c3cn([C@@H]4O[C@H](CO)[C@@H](n5cc(CCCCc6cn([C@H]7[C@H](O)[C@@H](O)[C@H](n8cc(-c9ccc(O[C@@H]%10O[C@H](CO)[C@H](O)[C@H](O)[C@H]%10O)cc9)nn8)O[C@@H]7CO)nn6)nn5)[C@H](O)[C@H]4O)nn3)cc2)[C@H](O)[C@@H](O)[C@H]1O", "target": "lecA (Pseudomonas aeruginosa, UniProt Q05097)", "assay": "isothermal titration calorimetry", "conditions": "25 °C", "measurement": "ΔH", "value": "-16.8 ± 0.5 kcal/mol"}
{"Compound": "Cc1ncsc1-c1ccc(C(CO)NC(=O)C2CC(O)CN2C(=O)C(C(C)C)n2cc(-c3ccc(COc4c(-c5c(C)c(F)cc6[nH]ncc56)c(C5CC5)cc5c(N6CC7CC6CN7)nc(OC6CCOCC6)nc45)cc3)nn2)cc1 (stereo not drawn)", "target": "GTPase KRas (KRAS, Homo sapiens, UniProt P01116, G12D)", "assay": "degrader", "system": "mouse PK-59 xenograft, tumour", "conditions": "intravenous, 30 mg/kg single, 24 h", "measurement": "protein degradation", "value": "93%"}
{"Compound": "N=C(N)NC(N)=S", "target": "Serine/threonine-protein phosphatase PP1-beta catalytic subunit, holoenzyme with MYPT1 (PPP1CB, Sus scrofa, UniProt P61292)", "conditions": "10 mM", "measurement": "MLCP inhibition", "value": "no inhibition"}
{"Compound": "COC(=O)/C(C#N)=C/c1c(-c2ccc(C)cc2)c2c(N)ncnc2n1CCCO", "target": "Ribosomal protein S6 kinase alpha-3, C-terminal kinase domain (Rps6ka3, Mus musculus, UniProt P18654, C436V)", "assay": "kinase activity, inhibitor", "how to read": "relative to: C436V mutant over wild type", "measurement": "fold resistance", "value": "~1000 fold"}
{"Compound": "COc1ccc(C(=O)/C=C/c2ccc(O)cc2)c(O)c1CC=C(C)C", "target": "Maob (Rattus norvegicus, UniProt P19643)", "assay": "inhibitor", "conditions": "concentration not given, with: benzylamine", "how to read": "relative to: cynaroside", "measurement": "MAO-B inhibitory potency", "value": "~150 fold"}
{"Compound": "Nc1ncnc2c1ncn2[C@@H]1O[C@H](CO)[C@@H](O[C@H]2O[C@H](CO)[C@@H](OP(=O)(O)O)[C@H](OP(=O)(O)O)[C@H]2O)[C@H]1O", "target": "Inositol 1,4,5-trisphosphate-gated calcium channel ITPR1, IP3-binding core (Itpr1, Rattus norvegicus, UniProt P29994, R504Q)", "assay": "binding, 3H-IP3 competition", "conditions": "IP3-binding core, unit not given", "how to read": "relative to: R504Q over wild type", "measurement": "ΔpKd", "value": "1.54 ± 0.14"}
{"Compound": "CC[C@H](C)[C@@H]1NC(=O)[C@H](Cc2ccc(O)cc2)NC(=O)[C@@H](N)Cn2cc(nn2)C[C@@H](C(=O)N2CCC[C@H]2C(=O)N[C@@H](CC(C)C)C(=O)NCC(N)=O)NC(=O)[C@H](CC(N)=O)NC(=O)[C@H](CCC(N)=O)NC1=O", "target": "Oxytocin receptor (OXTR, Homo sapiens, UniProt P30559)", "assay": "inositol phosphate, agonist", "system": "HEK293", "measurement": "Emax", "value": "80.4%"}
{"Compound": "CC[C@H](C)[C@H](NC(=O)[C@H](CCCNC(=N)N)NC(=O)[C@H](CCCNC(=N)N)NC(=O)[C@H](C)NC(=O)[C@H](CC(C)C)NC(=O)[C@H](CCCNC(=N)N)NC(=O)[C@H](C)NC(=O)[C@H](Cc1c[nH]c2ccccc12)NC(=O)[C@H](CCCCN)NC(=O)[C@H](CCC(=O)O)NC(C)=O)C(=O)N[C@@H](C)C(N)=O", "target": "Histone chaperone ASF1A", "assay": "isothermal titration calorimetry", "conditions": "concentration not given, pH 7.5, 20 °C", "measurement": "binding enthalpy", "value": "-10.5 ± 0.8 kcal/mol"}
{"Compound": "Cc1ccc(C(=O)Nc2ccc(CP(=O)(O)O)cc2CP(=O)(O)O)cc1NC(=O)c1cccc(NC(=O)Nc2cccc(C(=O)Nc3cc(C(=O)Nc4ccc(CP(=O)(O)O)cc4CP(=O)(O)O)ccc3C)c2)c1", "target": "F11 (Homo sapiens, UniProt P03951)", "assay": "enzyme activity, inhibitor", "conditions": "pH 7.4, 37 °C, with: S-2366 substrate", "measurement": "Hill slope", "value": "1.9 ± 0.5"}
{"Compound": "CC(C)CC(=N)NCCC[C@H](N)C(=O)O", "target": "Nitric oxide synthase, inducible, heme domain (Nos2, Mus musculus, UniProt P29477)", "assay": "heme content, inactivator, HPLC and LC/MS", "system": "purified enzyme", "measurement": "heme loss", "value": "< 5%"}
{"Compound": "CC[C@H](C)[C@H](NC(=O)[C@H](CCCNC(=N)N)NC(=O)[C@H](CCCNC(=N)N)NC(=O)[C@H](C)NC(=O)[C@H](CC(C)C)NC(=O)[C@H](CCCNC(=N)N)NC(=O)[C@H](C)NC(=O)[C@H](Cc1c[nH]c2ccccc12)NC(=O)[C@H](CCCCN)NC(=O)[C@H](CCC(=O)O)NC(=O)[C@H](CCC(=O)O)NC(=O)[C@@H](NC(=O)[C@H](CO)NC(=O)[C@H](C)NC(C)=O)[C@@H](C)O)C(=O)N[C@@H](C)C(=O)NCC(N)=O", "target": "Histone chaperone ASF1A", "assay": "isothermal titration calorimetry", "conditions": "concentration not given, pH 7.5, 20 °C", "measurement": "binding stoichiometry", "value": "1 ± 0.1"}
{"Compound": "O=C(CCl)N(CCNC(=O)C(F)(F)F)c1ccc([N+](=O)[O-])cc1", "target": "GSTO1 (Homo sapiens, UniProt P78417)", "assay": "LC-MS/MS", "conditions": "sum of normalized AUCs", "measurement": "total modified species", "value": "100%"}
{"note": "Repeated from above:"}
{"Compound": "CC[C@H](C)[C@@H]1NC(=O)[C@H](Cc2ccc(O)cc2)NC(=O)[C@@H](N)Cn2cc(nn2)C[C@@H](C(=O)N2CCC[C@H]2C(=O)N[C@@H](CC(C)C)C(=O)NCC(N)=O)NC(=O)[C@H](CC(N)=O)NC(=O)[C@H](CCC(N)=O)NC1=O", "target": "Oxytocin receptor (OXTR, Homo sapiens, UniProt P30559)", "assay": "inositol phosphate, agonist", "system": "HEK293", "measurement": "Emax", "value": "80.4%"}
{"Compound": "CC[C@H](C)[C@H](NC(=O)[C@H](CCCNC(=N)N)NC(=O)[C@H](CCCNC(=N)N)NC(=O)[C@H](C)NC(=O)[C@H](CC(C)C)NC(=O)[C@H](CCCNC(=N)N)NC(=O)[C@H](C)NC(=O)[C@H](Cc1c[nH]c2ccccc12)NC(=O)[C@H](CCCCN)NC(=O)[C@H](CCC(=O)O)NC(C)=O)C(=O)N[C@@H](C)C(N)=O", "target": "Histone chaperone ASF1A", "assay": "isothermal titration calorimetry", "conditions": "concentration not given, pH 7.5, 20 °C", "measurement": "binding enthalpy", "value": "-10.5 ± 0.8 kcal/mol"}
{"Compound": "Cc1ccc(C(=O)Nc2ccc(CP(=O)(O)O)cc2CP(=O)(O)O)cc1NC(=O)c1cccc(NC(=O)Nc2cccc(C(=O)Nc3cc(C(=O)Nc4ccc(CP(=O)(O)O)cc4CP(=O)(O)O)ccc3C)c2)c1", "target": "F11 (Homo sapiens, UniProt P03951)", "assay": "enzyme activity, inhibitor", "conditions": "pH 7.4, 37 °C, with: S-2366 substrate", "measurement": "Hill slope", "value": "1.9 ± 0.5"}
{"Compound": "CC(C)CC(=N)NCCC[C@H](N)C(=O)O", "target": "Nitric oxide synthase, inducible, heme domain (Nos2, Mus musculus, UniProt P29477)", "assay": "heme content, inactivator, HPLC and LC/MS", "system": "purified enzyme", "measurement": "heme loss", "value": "< 5%"}
